Measured values from different studies.
Every numbered part comes from another study and shows a few of its results, in no order. Positions count from the first letter of the parent shown.

Study 1
Target: RING finger protein unkempt homolog, zinc fingers 1-6, GST-SBP tag (UNK, Homo sapiens, UniProt Q9C0B0, residues 30-357)
Sequence of UniProt Q9C0B0 (30-357, looked up): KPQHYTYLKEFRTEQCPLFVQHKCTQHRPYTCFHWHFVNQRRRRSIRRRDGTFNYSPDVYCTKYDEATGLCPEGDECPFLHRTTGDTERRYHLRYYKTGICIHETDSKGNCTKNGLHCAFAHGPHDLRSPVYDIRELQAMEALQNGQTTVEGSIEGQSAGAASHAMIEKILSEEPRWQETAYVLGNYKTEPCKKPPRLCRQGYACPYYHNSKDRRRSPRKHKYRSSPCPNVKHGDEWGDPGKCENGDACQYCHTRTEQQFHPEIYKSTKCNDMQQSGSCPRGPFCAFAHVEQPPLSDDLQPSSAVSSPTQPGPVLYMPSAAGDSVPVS
Technique: RNA Bind-n-Seq
Molecule type: RNA
Medium: in vitro
Concentration: not given
Notes: RNA with constant flanks, human and mouse sites, ends assumed
Baseline: input RNA pool
Direction: higher = stronger binding
Oligonucleotide | bound/input enrichment [ratio]
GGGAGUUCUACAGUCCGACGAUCCUGGUUCCCGCCGGCGAGGAUUGUUAAAAUGAGUCUUCGGAAGCAAACCCCUAGUGACUUCUUAAAGCAAAUCAUCGGACGACCAGUUGUGGUAAAAUUAAAUUCUGGAGUGGAUUAUCGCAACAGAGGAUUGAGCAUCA | 0.684
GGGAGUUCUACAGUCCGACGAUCCCCCUCAAGCACCAACACAUUUUCUGGUGAUACCCAAGAAACAUAUAUCCCAGAUUUCUGUGGCAGAAGAUGAUGAUGAAAGUCUUCUUGGACACUUAAUGAUUGUUGGCAAGAAAUGUGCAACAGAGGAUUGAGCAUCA | 0.238
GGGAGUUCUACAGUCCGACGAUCAUUUCUCUCUGCAGGUUGGGGAUUAAAGUUCCUUUCCCCAUGGGUUUGAAGCAGACUCAGACUGUCUCAGGAUCAAAGCAACCCUCAAUGGUUUUGAUUUAUGUCAUUGCUUACCACUCCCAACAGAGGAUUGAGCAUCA | 0.184
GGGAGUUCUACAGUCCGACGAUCUUGGAAACCUAUUAUGAGCGUGUCUUGAAGAGAAAAACAUUUAACAAGGUUUUAGGACAUGUCAACAAUAUAUUAAUCUCUGCGGUGCUGCCAACAGCAUUCCGGGUGGCCAAAAAAAGGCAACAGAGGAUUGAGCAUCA | 0.242
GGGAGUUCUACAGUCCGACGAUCAAGAGAAAGAAAAUGCCGAAACCAAUCAACGUAAGAGUAACUACAAUGGAUGCUGAGCUGGAAUUUGCCAUUCAGCCCAAUACAACUGGCAAACAACUUUUUGACCAGGUGGUGAAAACACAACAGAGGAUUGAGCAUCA | 0.363
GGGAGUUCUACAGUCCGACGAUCCACUAGAGAUUUUUCUGUUUUUGAAAAUAGUUCGUGCUCUUCGGUUUUUGUUAUUGAACUGUUUCAUGUAUUUUUUAAAGACAUUUGAGGGGAGGAGGAUUAUUAUGAAUGGGAAAAAAACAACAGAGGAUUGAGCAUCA | 1.48

Study 2
Target: RNA binding protein fox-1 homolog 2, RRM domain, GST-SBP tag (RBFOX2, Homo sapiens, UniProt O43251-10, residues 100-194)
Technique: RNA Bind-n-Seq
Molecule type: RNA
Medium: in vitro
Concentration: 365 nM
Notes: natural RNA segment, single round, ends assumed
Baseline: no-protein control
Direction: higher = stronger binding
Construct (chain): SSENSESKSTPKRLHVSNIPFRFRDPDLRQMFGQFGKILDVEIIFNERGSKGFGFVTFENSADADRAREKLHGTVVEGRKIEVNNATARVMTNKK
Oligonucleotide | RBNS enrichment (R)
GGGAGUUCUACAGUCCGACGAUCGUGCUGAGUUUGACCAUUACAUUCAAAACUAAAACCUGUGUAGGAAGGUUAAGGUCGUGGCAGCAGAUGCCUAGCUUCUUAUUUAAAAAGUUGAGUGCACCCAGCCAUUUUGGAAUUCUCGGGUGCCAA | 0.723
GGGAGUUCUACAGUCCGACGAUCAACACUCUUAGAAUUCCCAUUUAAUAAACCAUAUGAGAAAACCCUCUAUUACUCUUACACUUUAGUUUUACCAUUUGAGUAGCCACUUAUUCACCAGAGUUGGAAUUGAGUGGAAUUCUCGGGUGCCAA | 0.851
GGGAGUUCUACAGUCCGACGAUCUGUAUAGAAAAUUCUUGAGAAGUAACUGUCCGCUAGAAGUCUGUCCAAAUUUAAAAUGUGUGCCAUAUUCUGGUUCUUGAAAAUAAGAUUCCAGAGCUCUUUGAUCGCUUUGGAAUUCUCGGGUGCCAA | 0.867
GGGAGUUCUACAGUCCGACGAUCACCACAGGUCUAUGUGUGCUGGGGGAUGUCAGGUGCCACCCAACGCUGUCCUGGUGGUAUUUACAAUGACAUCCUCCUCCUCCAUCACUCCAGGGGUGGUGUCUCGGCCGUGGAAUUCUCGGGUGCCAA | 0.383
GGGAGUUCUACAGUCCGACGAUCGGGCAAAGGGGGAAAAGAAUGCCGUAGGGGACCACACCUAAGGGACCAAAAGAUACCCACUGUCACUGAAGCAUUGUACCCCUAACCUCUGUCUCCAUACCUUCCUCUCCUGGAAUUCUCGGGUGCCAA | 0.569
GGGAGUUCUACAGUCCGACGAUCUGGCAUUCCUACCCUACAUCCUAUUUACCAGCAUACAUCAAACUGCUGCUGAUUUGAUUCCUCAAGAAAAUGAUUGGGGAAUAUUGUAGACUUCUUUUCCCUCCUAUUAAUGGAAUUCUCGGGUGCCAA | 0.385
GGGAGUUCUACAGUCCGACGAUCGAGAUUCUGUUAGAUGAUAUGUCUGACCCAAAUUUAAUCCAUAAUAAAAAAAAAUGGGAGAUUGUUUUCAGGAAUUCAGGGAUGAAAAGAAAGAAUAAUUUCCAUUAAGUUGGAAUUCUCGGGUGCCAA | 0.687
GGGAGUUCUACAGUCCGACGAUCCAGCUGCCGUUAACCUUUUCACCAGGUGCCACAGUAAUAUUUCUGGUUUUUAGCCCUUUCUCUGCACUACCAACAAGAGAUAAAAUUGUUACUCACACUUAUGUCUUACUUGGAAUUCUCGGGUGCCAA | 0.319

Study 3
Target: Ras GTPase-activating protein-binding protein 1, RRM domain (G3BP1, Homo sapiens, UniProt Q13283)
Sequence of UniProt Q13283 (whole entry, looked up): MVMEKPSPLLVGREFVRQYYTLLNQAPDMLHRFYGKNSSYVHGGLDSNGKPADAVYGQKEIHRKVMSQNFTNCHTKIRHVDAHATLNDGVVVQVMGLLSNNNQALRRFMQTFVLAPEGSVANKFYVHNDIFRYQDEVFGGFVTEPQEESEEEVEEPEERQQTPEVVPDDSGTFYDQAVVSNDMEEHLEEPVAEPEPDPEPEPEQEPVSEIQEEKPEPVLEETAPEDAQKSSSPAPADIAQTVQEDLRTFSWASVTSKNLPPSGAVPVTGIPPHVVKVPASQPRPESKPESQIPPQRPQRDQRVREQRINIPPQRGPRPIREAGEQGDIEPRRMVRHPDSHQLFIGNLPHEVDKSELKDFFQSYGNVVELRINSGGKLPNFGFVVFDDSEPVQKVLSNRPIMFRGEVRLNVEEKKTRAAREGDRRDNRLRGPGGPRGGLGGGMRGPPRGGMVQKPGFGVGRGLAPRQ
Technique: RNA Bind-n-Seq
Molecule type: RNA
Medium: in vitro
Concentration: 1 µM
Notes: whole 134-nt RNA, ends assumed
Together with: 150 mM KCl
Baseline: input library
Direction: higher = stronger binding
Oligonucleotide | log2 enrichment
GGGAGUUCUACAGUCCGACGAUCUCAAGUCCUGUGCUACACAUCGUAUGUACCGAAUCGGGAAAGGAAAGGGAAAGGAAAGUAUUAUGUUACGCCGUUCGGAUCUGCACUUCCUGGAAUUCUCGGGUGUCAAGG | -0.244
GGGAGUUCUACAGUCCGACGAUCUUUGACGCGGUGUGUUACGUGGGGGAGAGAAUAAAACUCCAGCGAGAUCCGGGCCGUGAACGAAAGCAGUGACGGAGGAGCUUGUACCACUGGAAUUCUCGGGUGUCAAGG | 0.0421
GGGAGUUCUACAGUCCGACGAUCAAGUCCUGUGCUACACAUCGUAUGUACCGAAUCGGGGUUUGGGGAGGGGAAAGGGGAAAGUAUUAUGUUACGCCGUUCGGAUCUGCACUUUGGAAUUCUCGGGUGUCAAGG | 1
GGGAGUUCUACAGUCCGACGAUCUUCUAUUUCUUUCCUUAAUGUUUUUUUCUUCCCUACUGUUUUAUCCUCCCUUUGCUUUGGAAGGAUAUUGCUGCAUAUCGAGCUAAAGGAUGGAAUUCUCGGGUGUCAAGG | -0.536
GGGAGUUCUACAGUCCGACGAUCCAUCCUUUGGGCCCCUCAAGGCCUUCAACCUGGUCAAGGACAGUGCCACGGGGCUCUCCAAGGGCUACGCCUUCUGUGAGUACGUGGACAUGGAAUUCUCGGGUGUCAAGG | -0.809
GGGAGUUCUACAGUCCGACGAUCCAAGUCCUGUGCUACACAUCGUAUGUACCGAAUCGGUUUUUGGUUUGGUUUUUGGAAAGUAUUAUGUUACGCCGUUCGGAUCUGCACUUCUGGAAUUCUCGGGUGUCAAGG | -0.285
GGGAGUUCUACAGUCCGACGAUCGUCCUGUGCUACACAUCGUAUGUACCGAAUCGGGAAAAAAGGAAAAAAGGAAAAAAGGGAAAGUAUUAUGUUACGCCGUUCGGAUCUGCAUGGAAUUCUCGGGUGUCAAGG | -0.00155
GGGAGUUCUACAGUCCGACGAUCGUCCUGUGCUACACAUCGUAUGUACCGAAUCGGAAAAAAAGGUUUUUGGUUUUUUUGGAAAGUAUUAUGUUACGCCGUUCGGAUCUGCACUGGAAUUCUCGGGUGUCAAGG | -0.249
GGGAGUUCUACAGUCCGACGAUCCACAGACAACACGCACCCACACAGACACAGAGGGAAGGGGUUGGGAUGGGGACAGGGUGCACAGCAGGGCGGCGUAGGACCCCAGCCCCUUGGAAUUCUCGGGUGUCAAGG | -0.226

Study 4
Target: CCND2, cyclin fold, Cln2 fusion (human)
Technique: yeast growth competition, sequencing
Medium: yeast
Notes: weak parent motif
Baseline: not given
Direction: higher = stronger binding
Parent: RBL2 docking peptide (human); STTRRRLFVENDS; partner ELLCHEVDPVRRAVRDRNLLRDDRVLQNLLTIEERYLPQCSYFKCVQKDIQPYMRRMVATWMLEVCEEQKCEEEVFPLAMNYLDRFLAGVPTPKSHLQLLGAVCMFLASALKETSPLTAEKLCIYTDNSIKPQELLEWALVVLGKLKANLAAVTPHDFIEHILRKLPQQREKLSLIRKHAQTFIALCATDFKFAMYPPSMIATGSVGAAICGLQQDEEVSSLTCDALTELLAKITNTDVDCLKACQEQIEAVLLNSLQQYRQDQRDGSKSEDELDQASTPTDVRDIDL
Variant | normalised enrichment score
SPTRRRLFVENDS [T2P] | 0.224
STTRRRLFVECDS [N11C] | 0.446
STTRRRLFTENDS [V9T] | 0.791
STTRRRLFVENCS [D12C] | -0.0664
STTRRRLFVSNDS [E10S] | 0.00613
STTIRRLFVENDS [R4I] | 0.0618
STTRRRLFVEKDS [N11K] | 0.147
STTSRRLFVENDS [R4S] | -0.198
NTTRRRLFVENDS [S1N] | 0.0671
STTRRRPFVENDS [L7P] | 0.221
STTRRRLTVENDS [F8T] | 0.256
STTRRRLPVENDS [F8P] | 0.643
HTTRRRLFVENDS [S1H] | -0.0196
KTTRRRLFVENDS [S1K] | 0.00103
DTTRRRLFVENDS [S1D] | 0.0651
FTTRRRLFVENDS [S1F] | 0.0736
STTRRRNFVENDS [L7N] | -0.129
STTDRRLFVENDS [R4D] | -0.517
STTRFRLFVENDS [R5F] | -0.455
STTKRRLFVENDS [R4K] | -0.354
STTRRRLFVENDY [S13Y] | 0.329
STTRRRLFVLNDS [E10L] | -0.117

A few entries again (study 1):
Oligonucleotide | bound/input enrichment [ratio]
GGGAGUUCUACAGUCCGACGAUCCUGGUUCCCGCCGGCGAGGAUUGUUAAAAUGAGUCUUCGGAAGCAAACCCCUAGUGACUUCUUAAAGCAAAUCAUCGGACGACCAGUUGUGGUAAAAUUAAAUUCUGGAGUGGAUUAUCGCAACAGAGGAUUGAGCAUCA | 0.684
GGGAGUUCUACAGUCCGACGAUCCCCCUCAAGCACCAACACAUUUUCUGGUGAUACCCAAGAAACAUAUAUCCCAGAUUUCUGUGGCAGAAGAUGAUGAUGAAAGUCUUCUUGGACACUUAAUGAUUGUUGGCAAGAAAUGUGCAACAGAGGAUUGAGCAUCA | 0.238
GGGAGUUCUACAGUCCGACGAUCAUUUCUCUCUGCAGGUUGGGGAUUAAAGUUCCUUUCCCCAUGGGUUUGAAGCAGACUCAGACUGUCUCAGGAUCAAAGCAACCCUCAAUGGUUUUGAUUUAUGUCAUUGCUUACCACUCCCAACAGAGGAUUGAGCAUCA | 0.184
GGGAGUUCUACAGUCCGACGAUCUUGGAAACCUAUUAUGAGCGUGUCUUGAAGAGAAAAACAUUUAACAAGGUUUUAGGACAUGUCAACAAUAUAUUAAUCUCUGCGGUGCUGCCAACAGCAUUCCGGGUGGCCAAAAAAAGGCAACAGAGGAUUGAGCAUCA | 0.242
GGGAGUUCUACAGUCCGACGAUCAAGAGAAAGAAAAUGCCGAAACCAAUCAACGUAAGAGUAACUACAAUGGAUGCUGAGCUGGAAUUUGCCAUUCAGCCCAAUACAACUGGCAAACAACUUUUUGACCAGGUGGUGAAAACACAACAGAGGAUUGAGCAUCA | 0.363
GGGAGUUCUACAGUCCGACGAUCCACUAGAGAUUUUUCUGUUUUUGAAAAUAGUUCGUGCUCUUCGGUUUUUGUUAUUGAACUGUUUCAUGUAUUUUUUAAAGACAUUUGAGGGGAGGAGGAUUAUUAUGAAUGGGAAAAAAACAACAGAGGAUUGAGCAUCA | 1.48
